Measurements pooled from the literature.
Every numbered part comes from another study and shows a few of its results, in no order. Values joined by “and” are separate records of one study, mostly repeats; a detail may differ.
Sequence of UniProt Q8NCB2 (whole entry, looked up): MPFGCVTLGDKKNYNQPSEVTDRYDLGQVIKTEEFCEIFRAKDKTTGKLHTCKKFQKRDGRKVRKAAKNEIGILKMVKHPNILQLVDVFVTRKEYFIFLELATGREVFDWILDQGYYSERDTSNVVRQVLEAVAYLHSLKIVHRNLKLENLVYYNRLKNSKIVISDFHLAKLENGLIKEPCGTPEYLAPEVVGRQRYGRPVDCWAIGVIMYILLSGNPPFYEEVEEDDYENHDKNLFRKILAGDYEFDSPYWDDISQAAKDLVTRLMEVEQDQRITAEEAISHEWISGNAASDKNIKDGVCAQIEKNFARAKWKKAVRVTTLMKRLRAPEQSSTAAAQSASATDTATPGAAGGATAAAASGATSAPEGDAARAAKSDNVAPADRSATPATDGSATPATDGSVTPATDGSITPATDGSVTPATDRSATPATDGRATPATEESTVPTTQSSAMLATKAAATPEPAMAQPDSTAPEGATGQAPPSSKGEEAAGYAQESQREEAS
Sequence of UniProt Q8TF76 (whole entry, looked up): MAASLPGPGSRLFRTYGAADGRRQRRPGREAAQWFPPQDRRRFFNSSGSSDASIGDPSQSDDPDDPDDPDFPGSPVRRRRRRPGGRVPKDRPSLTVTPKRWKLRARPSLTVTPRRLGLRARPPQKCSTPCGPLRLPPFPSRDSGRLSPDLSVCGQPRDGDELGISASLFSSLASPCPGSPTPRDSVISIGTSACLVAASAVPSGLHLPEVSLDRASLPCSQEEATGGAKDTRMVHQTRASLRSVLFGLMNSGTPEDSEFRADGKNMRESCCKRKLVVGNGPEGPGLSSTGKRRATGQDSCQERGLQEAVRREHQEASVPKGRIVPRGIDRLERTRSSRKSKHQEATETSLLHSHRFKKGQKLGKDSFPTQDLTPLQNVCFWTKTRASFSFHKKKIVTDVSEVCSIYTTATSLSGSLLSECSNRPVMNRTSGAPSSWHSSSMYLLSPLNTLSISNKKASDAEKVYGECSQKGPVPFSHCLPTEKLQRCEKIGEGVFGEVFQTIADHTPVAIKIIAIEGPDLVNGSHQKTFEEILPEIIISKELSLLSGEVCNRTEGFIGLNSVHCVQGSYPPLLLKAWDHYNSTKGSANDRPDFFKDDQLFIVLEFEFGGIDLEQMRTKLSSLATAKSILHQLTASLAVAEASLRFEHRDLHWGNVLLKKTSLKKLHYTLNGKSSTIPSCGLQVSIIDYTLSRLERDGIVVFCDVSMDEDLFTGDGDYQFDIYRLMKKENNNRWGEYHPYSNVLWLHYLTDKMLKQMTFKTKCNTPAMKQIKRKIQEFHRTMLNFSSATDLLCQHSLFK
Sequence of UniProt P42336 (whole entry, unmodified, looked up): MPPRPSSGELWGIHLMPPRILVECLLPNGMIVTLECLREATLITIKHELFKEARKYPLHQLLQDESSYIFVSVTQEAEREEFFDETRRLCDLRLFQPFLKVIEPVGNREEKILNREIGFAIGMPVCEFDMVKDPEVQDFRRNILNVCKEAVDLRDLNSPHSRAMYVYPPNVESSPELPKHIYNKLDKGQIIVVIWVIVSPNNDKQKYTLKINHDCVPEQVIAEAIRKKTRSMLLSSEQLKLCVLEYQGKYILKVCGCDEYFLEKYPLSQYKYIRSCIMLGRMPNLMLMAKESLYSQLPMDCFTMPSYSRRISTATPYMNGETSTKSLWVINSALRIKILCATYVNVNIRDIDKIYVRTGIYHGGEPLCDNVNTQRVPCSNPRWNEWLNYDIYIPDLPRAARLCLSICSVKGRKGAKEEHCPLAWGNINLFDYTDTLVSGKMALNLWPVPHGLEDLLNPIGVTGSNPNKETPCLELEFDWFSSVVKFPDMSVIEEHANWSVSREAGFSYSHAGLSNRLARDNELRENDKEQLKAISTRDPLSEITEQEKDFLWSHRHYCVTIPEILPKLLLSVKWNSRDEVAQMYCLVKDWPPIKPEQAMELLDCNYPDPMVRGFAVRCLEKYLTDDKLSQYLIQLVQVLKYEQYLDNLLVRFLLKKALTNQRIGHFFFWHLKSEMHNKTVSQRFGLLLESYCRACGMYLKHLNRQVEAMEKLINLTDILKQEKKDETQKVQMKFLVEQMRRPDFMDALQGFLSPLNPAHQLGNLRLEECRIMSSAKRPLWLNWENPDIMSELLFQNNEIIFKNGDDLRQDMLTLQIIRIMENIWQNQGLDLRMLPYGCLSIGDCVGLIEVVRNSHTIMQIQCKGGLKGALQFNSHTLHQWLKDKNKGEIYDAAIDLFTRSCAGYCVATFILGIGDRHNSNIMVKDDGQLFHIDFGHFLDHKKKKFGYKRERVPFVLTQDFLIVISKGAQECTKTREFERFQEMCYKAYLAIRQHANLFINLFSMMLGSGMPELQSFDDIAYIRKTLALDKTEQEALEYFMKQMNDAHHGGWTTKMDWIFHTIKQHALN
Sequence of UniProt Q08881 (whole entry, looked up): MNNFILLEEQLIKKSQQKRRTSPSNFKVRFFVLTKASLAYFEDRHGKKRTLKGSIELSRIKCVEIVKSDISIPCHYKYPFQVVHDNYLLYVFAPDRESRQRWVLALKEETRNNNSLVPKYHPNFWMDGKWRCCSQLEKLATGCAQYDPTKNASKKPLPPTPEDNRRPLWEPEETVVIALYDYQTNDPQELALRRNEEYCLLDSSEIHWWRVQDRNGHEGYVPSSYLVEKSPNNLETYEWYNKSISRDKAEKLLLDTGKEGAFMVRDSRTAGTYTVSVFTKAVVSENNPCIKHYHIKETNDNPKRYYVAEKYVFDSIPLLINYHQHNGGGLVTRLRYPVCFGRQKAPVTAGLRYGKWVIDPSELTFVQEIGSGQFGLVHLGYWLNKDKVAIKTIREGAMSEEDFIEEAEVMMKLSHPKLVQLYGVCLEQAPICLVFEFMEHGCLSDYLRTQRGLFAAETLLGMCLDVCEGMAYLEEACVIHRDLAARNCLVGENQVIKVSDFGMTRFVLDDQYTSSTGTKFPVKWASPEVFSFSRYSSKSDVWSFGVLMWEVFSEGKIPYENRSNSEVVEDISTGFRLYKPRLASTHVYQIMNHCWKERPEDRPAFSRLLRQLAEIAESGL
Sequence of UniProt Q9UQB9 (whole entry, looked up): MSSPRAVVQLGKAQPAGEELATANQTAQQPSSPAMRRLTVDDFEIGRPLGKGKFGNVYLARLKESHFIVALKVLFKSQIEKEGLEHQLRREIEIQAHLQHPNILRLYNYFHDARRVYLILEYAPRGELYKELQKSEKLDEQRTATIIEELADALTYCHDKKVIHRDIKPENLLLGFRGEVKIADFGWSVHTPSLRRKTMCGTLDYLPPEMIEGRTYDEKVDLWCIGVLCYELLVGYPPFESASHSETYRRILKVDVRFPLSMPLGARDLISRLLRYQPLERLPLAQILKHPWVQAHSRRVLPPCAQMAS
Sequence of UniProt Q8TBX8 (whole entry, looked up): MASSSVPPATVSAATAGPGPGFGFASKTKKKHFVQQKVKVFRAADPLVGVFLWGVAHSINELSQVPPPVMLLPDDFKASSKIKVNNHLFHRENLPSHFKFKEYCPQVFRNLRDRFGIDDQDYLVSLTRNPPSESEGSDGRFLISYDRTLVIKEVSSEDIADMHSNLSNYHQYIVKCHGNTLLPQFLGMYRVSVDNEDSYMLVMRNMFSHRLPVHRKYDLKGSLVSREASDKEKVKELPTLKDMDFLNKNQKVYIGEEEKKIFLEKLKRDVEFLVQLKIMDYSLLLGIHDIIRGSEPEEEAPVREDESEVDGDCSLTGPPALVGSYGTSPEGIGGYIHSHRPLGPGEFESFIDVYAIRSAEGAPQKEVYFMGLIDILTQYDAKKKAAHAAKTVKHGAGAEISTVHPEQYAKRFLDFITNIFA
Sequence of UniProt P32298 (whole entry, looked up): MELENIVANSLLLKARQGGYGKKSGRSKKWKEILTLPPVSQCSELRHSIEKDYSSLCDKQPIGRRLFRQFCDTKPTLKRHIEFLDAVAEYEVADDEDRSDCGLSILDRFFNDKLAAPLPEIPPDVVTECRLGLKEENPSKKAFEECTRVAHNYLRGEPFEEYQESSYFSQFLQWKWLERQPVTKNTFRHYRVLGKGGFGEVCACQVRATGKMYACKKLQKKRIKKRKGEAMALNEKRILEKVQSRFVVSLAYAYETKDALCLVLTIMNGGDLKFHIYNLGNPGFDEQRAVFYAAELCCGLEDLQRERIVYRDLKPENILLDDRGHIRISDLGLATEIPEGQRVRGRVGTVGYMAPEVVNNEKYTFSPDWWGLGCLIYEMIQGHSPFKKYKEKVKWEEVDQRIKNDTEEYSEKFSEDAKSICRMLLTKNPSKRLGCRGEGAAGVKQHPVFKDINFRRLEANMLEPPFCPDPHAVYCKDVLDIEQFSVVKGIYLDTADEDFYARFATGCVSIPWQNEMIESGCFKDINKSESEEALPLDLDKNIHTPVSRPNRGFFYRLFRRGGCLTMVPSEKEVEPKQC

Set 1 — effect on: cell-free assay; method: competition with immobilised ligand; concentration: 1 µM
SMILES: O=C(NCc1ncc(C(F)(F)F)cc1Cl)c1ccc2c(c1)C1(CCS(=O)(=O)CC1)[C@H](C1CC1)N2S(=O)(=O)c1ccc(F)cc1
It gave 77% for remaining binding (RIOK2 (Homo sapiens, UniProt Q9BVS4)).
The remaining binding was 100% (FLT3 (Homo sapiens, UniProt P36888, K663Q)).
It gave 90% for remaining binding (PIK3CA (Homo sapiens, UniProt P42336, H1047Y)).
For ITK (Homo sapiens, UniProt Q08881): remaining binding read 100%.
For STK38L (Homo sapiens, UniProt Q9Y2H1): remaining binding read 91%.
For PAK5 (Homo sapiens, UniProt Q9P286): remaining binding read 100%.
It gave 77% for remaining binding (PRKG2 (Homo sapiens, UniProt Q13237)).
It gave 100% for remaining binding (GRK4 (Homo sapiens, UniProt P32298)).
For CDK8 (Homo sapiens, UniProt P49336): remaining binding read 80%.
For MERTK (Homo sapiens, UniProt Q12866): remaining binding read 100%.
MAP4K1 (Homo sapiens, UniProt Q92918) — remaining binding: 100%.
For NEK10 (Homo sapiens, UniProt Q6ZWH5): remaining binding read 94%.
For HASPIN (Homo sapiens, UniProt Q8TF76): remaining binding read 87%.
It gave 82% for remaining binding (Aurora kinase C (AURKC, Homo sapiens, UniProt Q9UQB9)).
For HIPK4 (Homo sapiens, UniProt Q8NE63): remaining binding read 100%.
PIP4K2C (Homo sapiens, UniProt Q8TBX8) — remaining binding: 100%.
MAP3K19 (Homo sapiens, UniProt Q56UN5) — remaining binding: 73%.

Set 2 — mode: antagonist
Target: Beta-1 adrenergic receptor (ADRB1, Homo sapiens, UniProt P08588)
Sequence of UniProt P08588 (whole entry, looked up): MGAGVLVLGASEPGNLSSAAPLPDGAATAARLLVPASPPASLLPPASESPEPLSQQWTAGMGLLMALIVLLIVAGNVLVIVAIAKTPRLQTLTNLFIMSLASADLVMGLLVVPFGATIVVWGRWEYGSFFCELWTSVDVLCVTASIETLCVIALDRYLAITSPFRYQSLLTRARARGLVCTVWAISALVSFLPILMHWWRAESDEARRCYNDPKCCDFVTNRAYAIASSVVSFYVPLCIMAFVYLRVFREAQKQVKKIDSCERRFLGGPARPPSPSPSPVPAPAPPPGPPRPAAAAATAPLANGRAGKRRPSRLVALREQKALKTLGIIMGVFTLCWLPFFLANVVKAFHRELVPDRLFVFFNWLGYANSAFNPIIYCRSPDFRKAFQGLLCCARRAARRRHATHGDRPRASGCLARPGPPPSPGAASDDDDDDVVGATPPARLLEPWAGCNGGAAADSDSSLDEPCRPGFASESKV
`Cc1cc(-c2ccccc2)nc2ccccc12` gave an IC50 of 15.8 µM.
`c1cnc2c(CN3CCN(c4ccc5nccnc5n4)CC3)cccc2c1` gave an IC50 of ≥ 100 µM.
`N[S+](=O)([O-])c1ccc(Cc2c(-c3ccc(F)c(C#Cc4ccc(CNCCOCCOCCNC(=O)COc5cccc6c5C(=O)N(C5CCC(=O)NC5=O)C6=O)s4)c3)nn(-c3nc(C(=O)O)cs3)c2CC2CC2)cc1F` (stereo not drawn) has an IC50 of ≥ 100 µM.
`O=C(c1cc2ccccc2o1)N1CCN(c2cccc(Cl)c2)CC1` gave an IC50 of ≥ 100 µM.
`Cc1cccc(CCNc2ncc(C(C)(C)C(=O)O)c(N3CCOCC3)n2)n1` has an IC50 of ≥ 100 µM.

Set 3 — host: C57BL/6 CES1-/- mice, EL4 tumour; medium: EL4 tumour; route: subcutaneous; dose: 0.3 mg/kg/day DON equivalent; time: 5 days
SMILES: CC(=O)N[C@@H](Cc1c[nH]c2ccccc12)C(=O)N[C@@H](CCC(=O)C=[N+]=[N-])C(=O)OC(C)C
For LC-MS/MS metabolomics, refers to: 2-aminoadipate; normalised to tissue mass; higher = more metabolite: “metabolite peak intensity” read 4.84e+06 a.u. and 1.07e+07 a.u. and 3.82e+06 a.u. and 8.64e+06 a.u. and 9.89e+06 a.u. and 3.83e+06 a.u.
It gave 6.99e+06 a.u. and 8.58e+06 a.u. and 7.41e+06 a.u. and 6.81e+06 a.u. and 9.69e+06 a.u. and 1.08e+07 a.u. for “metabolite peak intensity” (UPLC-MS/MS, refers to: N-acetyl-beta-alanine).
The “metabolite peak intensity” was 1.94e+09 a.u. and 2.49e+09 a.u. and 2.27e+09 a.u. and 2.48e+09 a.u. and 1.99e+09 a.u. and 2.24e+09 a.u. (LC-MS/MS metabolomics, refers to: phenylalanine; higher = more metabolite).

Set 4 — effect on: cell viability
Compound: CC(C)S(=O)(=O)c1ccc2nccc(Nc3ccc4sc(C5CCCC5)nc4c3)c2c1
It gave 59.3 µM for CC50 (L929 RIPK3 knockout; 10% FBS, mean of 3, with: zVAD).
L929; CCK-8; 10% FBS, with: zVAD — CC50: 53.2 µM.
For L929; CCK-8; without zVAD, 10% FBS: CC50 read 52.8 µM and 53.4 µM.
For L929 RIPK3 knockout; without zVAD, 10% FBS: CC50 read 60.8 µM.

Set 5 — organism: Sarcocystis neurona; effect on: parasite growth; concentration: 10 µM; notes: second screen; reference: untreated
`COc1ccc(CC(C)NCC(O)c2ccc(O)c(NC=O)c2)cc1.COc1ccc(CC(C)NCC(O)c2ccc(O)c(NC=O)c2)cc1.O.O.O=C(O)/C=C/C(=O)O` (stereo not drawn): “log2 fold change” 0.47.
`O=c1[nH]c(=O)n([C@H]2C[C@H](O)[C@@H](CO)O2)cc1F`: “log2 fold change” -0.27.
For `CC1(C)C[C@@H]1C(=O)N/C(=C\CCCCSC[C@H](N)C(=O)O)C(=O)[O-].[Na+]`, “log2 fold change” read 0.56.
Under “log2 fold change”, `CCCc1nc(C)c2c(=O)[nH]c(-c3cc(S(=O)(=O)N4CCN(CC)CC4)ccc3OCC)nn12.O=C(O)CC(O)(CC(=O)O)C(=O)O` is recorded as 0.63.

Other studies, line by line
With `NC(=O)c1cccc(-c2cc(Nc3ccc(OC(F)(F)F)cc3)ncn2)c1` the EC50 was > 10 µM (CaM kinase-like vesicle-associated protein (CAMKV, Homo sapiens, UniProt Q8NCB2); kinase–CDC37 interaction, inhibitor; human cells; kinome plate 2@E05).
With `CC(C)(C)c1cnc(CSc2cnc(NC(=O)C3CCN(CCCCSc4cccc5c4C(=O)N(C4CCC(=O)NC4=O)C5=O)CC3)s2)o1` (stereo not drawn) the viability was 100% (HH; CCK-8; 100 nM).
`CC(C)n1cnc(-c2ccc(F)cc2)c1-c1ncc(C(=O)Nc2ccc(N3CCN(C)CC3)cc2)[nH]1` — result for “left bundle branch block incidence”: 0% (IPF patients; 60 mg once daily, adverse event).

For quick reference, copied from above (set 1):
For MERTK (Homo sapiens, UniProt Q12866): remaining binding read 100%.
For STK38L (Homo sapiens, UniProt Q9Y2H1): remaining binding read 91%.
It gave 77% for remaining binding (PRKG2 (Homo sapiens, UniProt Q13237)).
For NEK10 (Homo sapiens, UniProt Q6ZWH5): remaining binding read 94%.
For ITK (Homo sapiens, UniProt Q08881): remaining binding read 100%.
